Published values of several laboratories.
Protocols differ between the studies behind these lines. “And” joins repeats or separate records; there may be more than shown. ± marks the error that the study gave.

SMILES | cell line | assay | conditions | scale | endpoint | value
CCNc1cc2c(cc1C)C1(c3cc(C)c(NCC)cc3O2)c2ccccc2C(=O)N1N=Cc1c[c-]c(-c2ccccn2)cc1.Cc1c(C)c(-c2ccc(-c3ccccc3)cc2)[c-](C)c1C.[Cl-].[Ir+3] | A549 | PI flow cytometry | 2 x IC50, 24 h |  | G0/G1 phase cells | 51.53 ± 0.28%
COc1cccc(/C=N/Nc2nc(Nc3ccccc3)nc(-n3nc(C)cc3C)n2)c1O | LDR | silenced CMV-GFP reporter derepression, qHTS |  |  | efficacy | 83%
COc1ccc2c(c1)OC1=C(C(=O)CCC1)C2c1c[nH]c2ccccc12 (stereo not shown) | mouse preadipocytes | qPCR, item: HSL | IC20, 14 days, adipogenic induction | relative to: untreated cells | mRNA level | decreased
Cn1ncc2cc(-c3cncc(Cl)c3N3CCC4(CCNC4=O)CC3)ccc21 | LS174T | gene expression, microarray, item: PPP1R3C mRNA | concentration not given, 24 h | relative to: untreated cells | log2 fold change | 3
COC(=O)c1cc(NC2=NC(=O)C(=Cc3ccc(N(C)C)cc3)S2)ccc1OC(C)=O | MCF7 | GC-MS, item: Spermine | 1 µM | relative to: DMSO | metabolite level | -0.29 fold change
CCN(CC)CC(=O)Nc1cccc(-n2cc(-c3ccc4ccc(-c5cn(-c6cccc(NC(=O)CN(CC)CC)c6)nn5)cc4c3)nn2)c1 | RCC4 | PCR angiogenesis array, item: IL1B | 5 x IC50, 6 h, normoxia | relative to: untreated | fold regulation | -3.05
Cc1ncsc1-c1ccc(C(C)NC(=O)C2CC(O)CN2C(=O)C(NC(=O)CCCCCCCCCCN2CCCC(Nc3ncc(Cl)c(Nc4ccccc4S(=O)(=O)C(C)C)n3)C2)C(C)(C)C)cc1 (stereo not shown) | 22Rv1 | RNA-seq, item: MAU2 mRNA | concentration not given | relative to: DMSO | log2 fold change | -1.52
CCCCCCCCCCCCCCCC(=O)OCC(CSC[C@H](N)C(=O)N[C@@H](CO)C(=O)N[C@@H](CCCCN)C(=O)N[C@@H](CCCCN)C(=O)N[C@@H](CCCCN)C(=O)N[C@@H](CCCCN)C(=O)NCCCCCC(=O)N[C@@H](CCCCN)C(=O)N[C@@H](CC(C)C)C(=O)N[C@H](C(=O)N[C@@H](Cc1ccccc1)C(=O)N[C@@H](Cc1ccccc1)C(=O)N[C@@H](Cc1ccc2ccccc2c1)C(=O)O)C(C)C)OC(=O)CCCCCCCCCCCCCCC (stereo partly shown) | BV-2 | Western blot, item: MARCO | concentration not given, unit not given | relative to: control | protein level | 4.48 and 3.29
Cn1ncc(-c2ccc3c(=O)[nH]nc(CN)c3c2)c1-c1c(F)c(Cl)cc(OC2CC2)c1C#N | CoC1 | cell viability, CellTiter-Glo | 120 h |  | IC50 | 0.84 µM
CNS(=O)(=O)Nc1nccc(Cc2c(C)c3ccc(Oc4ncccc4F)cc3oc2=O)c1F | NCI-H647 | cell viability | 7 days |  | IC50 | > 1 µM
Cc1ccc(-n2cc(CSc3nc4ccccc4n3Cc3cn(-c4ccc(C)cc4)nn3)nn2)cc1 | MDA-MB-231 | MTT | 62.5 ppm |  | cytotoxicity | 87.8%
COc1ccc(-c2cc3c(N4CCC[C@H](C(=O)NCc5ccc(OC(F)(F)F)cc5)C4)ncnc3[nH]2)cn1 | NCI-H2228 | cell growth or viability, MTT | 0.008 µg/mL, 72 h |  | inhibition | 4.09%
CN1CCCNC(=O)c2cccc(c2)C(=O)NCCCN(C)CCCNc2cccc3c2C(=O)c2cccc(c2C3=O)NCCC1 | SAS | RNA-Seq, item: EIF4ENIF1 mRNA | 1 µM, 6 h | relative to: untreated cells | log2 fold change | -0.908
O=C(NCc1ccc(OC(F)(F)F)cc1)[C@H]1CCCN(c2ncnc3[nH]c(-c4cccs4)cc23)C1 | NCI-H2228 | cell growth or viability, MTT | 0.04 µg/mL, 72 h |  | inhibition | 31.6%
N#Cc1cccc(/C=C/C(=O)c2ccc(O)cc2)c1 | U-87 MG | item: DUS3L | concentration not given | relative to: untreated | fold change | 0.05
Cc1cc(NC2CCN(C)CC2)ccc1-c1cc2c(N3CCC[C@H](C(=O)Nc4ccc(C#N)cc4)C3)ncnc2[nH]1 | NCI-H2228 | cell growth or viability, MTT | 5 µg/mL, 72 h |  | inhibition | 91.3%
O=C(C[Se]C(=O)c1ccccc1Nc1ccccc1)Nc1cccc(C(F)(F)F)c1 | NCI60 renal subpanel | total growth inhibition, inhibitor | five-dose |  | mean TGI | 3.44 µM
Cc1cc(NC2CCN(C)CC2)ccc1-c1cc2c(N3CCC[C@H](C(=O)Nc4cccc(Cl)c4)C3)ncnc2[nH]1 | NCI-H2228 | cell growth or viability, MTT | 0.04 µg/mL, 72 h |  | inhibition | 60.6%
[BH3-][P+]1(c2ccccc2)CCC(=O)CC1 | SW480 | MTT | 72 h | relative to: IC50 HaCaT over IC50 SW480 | selectivity index | 1
